Assay results collected from several papers.
Compare with care: the assays were run in different laboratories. ± marks the error that the study gave.
OPRM1: Mu-type opioid receptor (OPRM1, Homo sapiens, UniProt P35372)
Kir3.1/Kir3.4: Kir3.1/Kir3.4 (Homo sapiens, UniProt P48544+P48549)
CLPP: ATP-dependent Clp protease proteolytic subunit, mitochondrial (CLPP, Homo sapiens, UniProt Q16740)
Mrgprb2: Mrgprb2 (Mus musculus, UniProt Q3KNA1)
uncharacterized protein: uncharacterized protein (Puma concolor, UniProt A0A6P6H1F7)

| target | assay | system | conditions | EC50 [µM] | Compound |
| --- | --- | --- | --- | --- | --- |
| OPRM1 | antagonist |  |  | > 10 | Cn1cc2c(C(=O)O)ccc(NS(=O)(=O)c3ccc(OCC4CCC4)c(Cl)c3)c2n1 |
| Kir3.1/Kir3.4 | activator, thallium flux | HEK293 |  | 0.804 | O=C(COc1ccc(Cl)cc1Cl)Nc1cc(C2CC2)nn1C1CCC(F)(F)CC1 |
| OPRM1 | functional response, agonist | cells |  | 7.3 | C[C@H]1C[C@@H](N2C(=N)N[C@](C)(c3cccc(Nc4ccc(C5CC5)nc4)c3Cl)CC2=O)CCO1 |
| P2X purinoceptor 4 (P2RX4, Homo sapiens, UniProt Q99571) | agonist |  |  | 20 ± 2 | Nc1ncnc2c1ncn2[C@@H]1O[C@H](COP(=O)(O)OP(=O)(O)OP(=O)(O)O)[C@@H](O)[C@H]1O |
| CLPP | peptidase activity, activator |  | added: Ac-WLA-AMC | 0.0481 ± 0.0016 | C[C@@H]1CC2=C(CN1Cc1cccc(C#N)c1)C(=O)N(Cc1cccc(Br)c1)C1=NCCN12 |
| Kir3.1/Kir3.4 | activator, thallium flux | HEK293 |  | 10 | O=C(COc1ccc(Cl)cc1Cl)Nc1cc(C2CCC2)nn1C1CCC(F)(F)CC1 |
| Solute carrier family 22 member 15 (SLC22A15, Homo sapiens, UniProt Q8IZD6) | creatine efflux, activator, LC-MS/MS | human cells, HBSS | 30 min, 37 °C, added: 1 mM and 10 mM creatine, butyrate, sodium | 800 | NCCCC(=O)O |
| Mrgprb2 | mast cell degranulation, agonist, measured: β-hexosaminidase release | peritoneal mast cells, wild-type mice |  | 1.39 | CC[C@@H](C)[C@@H](NC(=O)[C@@H](C)NC(=O)[C@@H](CCCNC(=N)N)NC(=O)[C@@H](Cc1c[nH]c2ccccc12)NC(=O)[C@@H](CCC(N)=O)NC(=O)[C@H](N)C(C)C)C(=O)N[C@H](CCCNC(=N)N)C(=O)N[C@@H](C(=O)N[C@H](CCCNC(=N)N)C(=O)N[C@@H](C(=O)N[C@@H](C(=O)N[C@H](CCCNC(=N)N)C(N)=O)[C@H](C)CC)C(C)C)C(C)C |
| HTR1D (Homo sapiens, UniProt P28221) | agonist |  |  | 0.372 | CN1CCN2c3ccccc3Cc3ccccc3C2C1 (centres unmarked) |
| STK17B (Homo sapiens, UniProt O94768) | binding, kinobead competition | MV4-11 cell lysate |  | 4.45 | COc1cc(Nc2ncc3c(n2)-c2ccc(Cl)cc2C(c2c(F)cccc2OC)=NC3)ccc1C(=O)O |
| uncharacterized protein | cAMP, agonist | HEK293 transfected with uncharacterized protein |  | > 1500 | CCc1nccnc1CC |
| Insulin receptor, isoform B (INSR, Homo sapiens, UniProt P06213) | AKT phosphorylation, agonist | NIH 3T3 (IR-B) |  | 0.0102 | CC[C@H](C)[C@H](NC(=O)[C@H](CCC(N)=O)NC(=O)[C@H](C)NC(=O)[C@H](Cc1c[nH]c2ccccc12)NC(=O)[C@H](CCC(=O)O)NC(=O)[C@H](CCC(=O)O)NC(=O)[C@H](CCC(=O)O)NC(=O)[C@H](CC(C)C)NC(=O)[C@H](CO)NC(C)=O)C(=O)N[C@@H](CCC(=O)O)C(=O)N[C@H]1CSSC[C@@H](C(=O)N2CCC[C@H]2C(=O)N[C@@H](CO)C(=O)N[C@@H](CCC(=O)O)C(=O)N[C@@H](CO)C(=O)N[C@@H](Cc2ccccc2)C(=O)N[C@@H](Cc2ccc(O)cc2)C(=O)N[C@@H](CC(=O)O)C(=O)N[C@@H](Cc2c[nH]c3ccccc23)C(=O)N[C@@H](Cc2ccccc2)C(=O)N[C@@H](CCC(=O)O)C(=O)N[C@@H](CCCNC(=N)N)C(=O)N[C@@H](CCC(N)=O)C(=O)N[C@@H](CC(C)C)C(N)=O)NC(=O)CNC(=O)[C@H](CCCNC(=N)N)NC(=O)CNC(=O)[C@H](Cc2ccc(O)cc2)NC(=O)[C@H](C(C)C)NC(=O)[C@H](CCC(=O)O)NC1=O |
| CLPP | peptidase activity, activator |  | added: Ac-WLA-AMC | 0.104 ± 0.0013 | C[C@@H]1CC2=C(CN1Cc1cccc(C#N)c1)C(=O)N(Cc1cccc3ccccc13)C1=NCCN12 |
| Kir3.1/Kir3.4 | activator, thallium flux | HEK293 |  | 0.306 | CCc1cc(NC(=O)COc2ccc(Cl)cc2Cl)n(C2CCC(F)(F)CC2)n1 |
| Mrgprb2 | mast cell degranulation, agonist, measured: β-hexosaminidase release | peritoneal mast cells, wild-type mice |  | 3.33 | CC[C@@H](C)[C@@H](NC(=O)[C@H](NC(=O)[C@@H](CCCNC(=N)N)NC(=O)[C@H](NC(=O)[C@H]1CCCN1C(=O)[C@H](NC(=O)[C@@H](C)NC(=O)[C@@H](CCCNC(=N)N)NC(=O)[C@@H](Cc1c[nH]c2ccccc12)NC(=O)[C@@H](CCC(N)=O)NC(=O)[C@H](N)C(C)C)[C@H](C)CC)C(C)C)C(C)C)C(=O)N[C@H](CCCNC(=N)N)C(N)=O |
| EPHB4 (Homo sapiens, UniProt P54760) | binding, kinobead competition | MV4-11 cell lysate |  | > 30 | COc1cc(Nc2ncc3c(n2)-c2ccc(Cl)cc2C(c2c(F)cccc2OC)=NC3)ccc1C(=O)NCCOCCOCCNC(=O)COc1cccc2c1C(=O)N(C1CCC(=O)NC1=O)C2=O (centres unmarked) |
| CLPP | peptidase activity, activator |  | added: Ac-WLA-AMC | 0.1036 ± 0.0003 | Cc1cc(Br)ccc1CN1C(=O)C2=C(C[C@@H](C)N(Cc3cccc(C#N)c3)C2)N2CCN=C12 |
| uncharacterized protein | cAMP, agonist | HEK293 transfected with uncharacterized protein |  | 129 ± 47 | C=CCc1ccc(OC)c(OC)c1 |
| Kir3.1/Kir3.4 | activator, thallium flux | HEK293 |  | > 10 | Cc1cc(NC(=O)C2CCc3cc(F)ccc3O2)n(C2CCS(=O)(=O)C2)n1 (centres unmarked) |
| CLPP | peptidase activity, activator |  | added: Ac-WLA-AMC | 0.0777 ± 0.0156 | C[C@@H]1CC2=C(CN1Cc1cccc(C#N)c1)C(=O)N(Cc1ccc3ccccc3c1)C1=NCCN12 |
| FKBP1A/BRD9 (Homo sapiens, UniProt P62942+Q9H8M2) | FKBP12 recruitment, NanoBiT | HEK-293T | 2 h, full-length BRD9 | > 5 | CCNC(=O)N1CCN(c2nc(NC3CCN(C(=O)[C@@H](CCc4ccc(OC)cc4)NC(=O)[C@@H]4CCCCN4C(=O)C(=O)C(C)(C)CC)CC3)nc(N(Cc3cnn(C)c3)C3CC3)n2)CC1 |
| Kir3.1/Kir3.4 | activator, thallium flux | HEK293 |  | 1.6 | CCc1cc(NC(=O)COc2ccc(C(F)(F)F)cc2C(F)(F)F)n(CC(F)(F)F)n1 |
| Calcr/Ramp3, CT(a) isoform (Mus musculus, UniProt Q60755+Q9WUP1) | cAMP accumulation, agonist, cAMP HTRF | BHK, transiently transfected | without human serum albumin | 2.5e-06 | CC[C@H](C)[C@H](NC(=O)[C@@H]1CCCN1C(=O)CNC(=O)[C@H](Cc1ccccc1)NC(=O)[C@H](CC(N)=O)NC(=O)[C@H](CC(N)=O)NC(=O)[C@H](CO)NC(=O)[C@H](CO)NC(=O)[C@H](Cc1c[nH]cn1)NC(=O)[C@@H](NC(=O)[C@H](CC(C)C)NC(=O)[C@H](Cc1ccccc1)NC(=O)[C@H](CC(N)=O)NC(=O)[C@H](C)NC(=O)[C@H](CC(C)C)NC(=O)[C@H](CCCNC(=N)N)NC(=O)[C@H](CCC(N)=O)NC(=O)[C@@H](NC(=O)[C@H](C)NC(=O)[C@@H]1CSSC[C@H](NC(=O)[C@@H](N)CCCCN)C(=O)N[C@@H](CC(N)=O)C(=O)N[C@@H]([C@@H](C)O)C(=O)N[C@@H](C)C(=O)N[C@@H]([C@@H](C)O)C(=O)N1)[C@@H](C)O)C(C)C)C(=O)N[C@@H](CC(C)C)C(=O)N1CCC[C@H]1C(=O)N1CCC[C@H]1C(=O)N[C@H](C(=O)N[C@@H](CC(N)=O)C(=O)N[C@H](C(=O)NCC(=O)N[C@@H](CO)C(=O)N[C@@H](CC(N)=O)C(=O)N[C@H](C(=O)N[C@@H](Cc1ccc(O)cc1)C(N)=O)[C@@H](C)O)C(C)C)[C@@H](C)O |
| Kir3.1/Kir3.4 | activator, thallium flux | HEK293 |  | 10 | O=C(COc1ccc(Cl)cc1Cl)Nc1cc(C2CCC2)nn1C1CCOCC1 |
| KCNN4/CALM1 (Homo sapiens, UniProt O15554+P0DP23, R287A) | ion current, activator, whole-cell patch clamp |  | R287A mutant | 0.098 | O=C1Nc2c(ccc(Cl)c2Cl)C1=NO |
| Kir3.1/Kir3.4 | activator, thallium flux | HEK293 |  | 5.58 | Cc1cc(NC(=O)C2CCc3cc(Cl)ccc3O2)n(C2CCS(=O)(=O)C2)n1 (centres unmarked) |
| NR1I2 (Homo sapiens, UniProt O75469) | agonist |  | 120 min, pH 7.5 | 1.64 | CCC(C)N(C)C(=O)c1cc2ccccc2c(-c2ccccc2Cl)n1 (centres unmarked) |
| Kir3.1/Kir3.4 | activator, thallium flux | HEK293 |  | 1.75 | O=C(COc1cc(Cl)ccc1Cl)Nc1cc(C2CC2)nn1CC(F)(F)F |
| OPRM1 | agonist, GTPγS binding |  |  | > 100 | CCn1c(-c2nc3cc(C(=O)N4CCC[C@@H](N)C4)cc(OC)c3n2C)cc2cccnc21 |

A few entries again:
| target | assay | system | conditions | EC50 [µM] | Compound |
| --- | --- | --- | --- | --- | --- |
| Mrgprb2 | mast cell degranulation, agonist, measured: β-hexosaminidase release | peritoneal mast cells, wild-type mice |  | 3.33 | CC[C@@H](C)[C@@H](NC(=O)[C@H](NC(=O)[C@@H](CCCNC(=N)N)NC(=O)[C@H](NC(=O)[C@H]1CCCN1C(=O)[C@H](NC(=O)[C@@H](C)NC(=O)[C@@H](CCCNC(=N)N)NC(=O)[C@@H](Cc1c[nH]c2ccccc12)NC(=O)[C@@H](CCC(N)=O)NC(=O)[C@H](N)C(C)C)[C@H](C)CC)C(C)C)C(C)C)C(=O)N[C@H](CCCNC(=N)N)C(N)=O |
| EPHB4 (Homo sapiens, UniProt P54760) | binding, kinobead competition | MV4-11 cell lysate |  | > 30 | COc1cc(Nc2ncc3c(n2)-c2ccc(Cl)cc2C(c2c(F)cccc2OC)=NC3)ccc1C(=O)NCCOCCOCCNC(=O)COc1cccc2c1C(=O)N(C1CCC(=O)NC1=O)C2=O (centres unmarked) |
| CLPP | peptidase activity, activator |  | added: Ac-WLA-AMC | 0.1036 ± 0.0003 | Cc1cc(Br)ccc1CN1C(=O)C2=C(C[C@@H](C)N(Cc3cccc(C#N)c3)C2)N2CCN=C12 |
| uncharacterized protein | cAMP, agonist | HEK293 transfected with uncharacterized protein |  | 129 ± 47 | C=CCc1ccc(OC)c(OC)c1 |
| Kir3.1/Kir3.4 | activator, thallium flux | HEK293 |  | > 10 | Cc1cc(NC(=O)C2CCc3cc(F)ccc3O2)n(C2CCS(=O)(=O)C2)n1 (centres unmarked) |
